Assay results pooled from the literature.
Numbered parts are unrelated; each lists some results of a single study.
UniProt P36896, sequence (whole entry, looked up): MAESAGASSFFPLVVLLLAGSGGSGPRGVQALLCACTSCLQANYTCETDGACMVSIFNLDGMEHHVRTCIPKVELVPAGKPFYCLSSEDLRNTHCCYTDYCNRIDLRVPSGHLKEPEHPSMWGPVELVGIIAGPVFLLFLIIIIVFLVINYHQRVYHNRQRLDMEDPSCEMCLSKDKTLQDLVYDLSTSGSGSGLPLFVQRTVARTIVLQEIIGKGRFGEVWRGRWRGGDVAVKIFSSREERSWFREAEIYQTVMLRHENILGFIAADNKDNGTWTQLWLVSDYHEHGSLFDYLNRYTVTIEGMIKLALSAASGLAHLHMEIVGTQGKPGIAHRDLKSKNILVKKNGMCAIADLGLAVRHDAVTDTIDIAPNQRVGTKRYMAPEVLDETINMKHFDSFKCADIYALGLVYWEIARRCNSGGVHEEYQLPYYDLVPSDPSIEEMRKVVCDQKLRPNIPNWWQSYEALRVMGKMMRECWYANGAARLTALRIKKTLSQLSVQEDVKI
UniProt P78368, sequence (whole entry, looked up): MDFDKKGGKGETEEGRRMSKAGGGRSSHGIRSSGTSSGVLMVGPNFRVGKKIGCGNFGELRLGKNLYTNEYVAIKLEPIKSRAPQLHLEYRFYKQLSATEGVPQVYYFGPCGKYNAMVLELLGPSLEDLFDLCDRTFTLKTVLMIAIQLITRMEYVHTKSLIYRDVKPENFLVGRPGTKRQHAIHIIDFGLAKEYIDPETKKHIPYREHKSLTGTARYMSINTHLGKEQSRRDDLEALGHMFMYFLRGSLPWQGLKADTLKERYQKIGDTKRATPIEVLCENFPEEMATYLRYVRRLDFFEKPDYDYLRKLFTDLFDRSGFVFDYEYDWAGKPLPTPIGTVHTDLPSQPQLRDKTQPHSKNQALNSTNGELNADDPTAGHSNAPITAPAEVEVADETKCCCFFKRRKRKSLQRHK
UniProt Q02763, sequence (whole entry, looked up): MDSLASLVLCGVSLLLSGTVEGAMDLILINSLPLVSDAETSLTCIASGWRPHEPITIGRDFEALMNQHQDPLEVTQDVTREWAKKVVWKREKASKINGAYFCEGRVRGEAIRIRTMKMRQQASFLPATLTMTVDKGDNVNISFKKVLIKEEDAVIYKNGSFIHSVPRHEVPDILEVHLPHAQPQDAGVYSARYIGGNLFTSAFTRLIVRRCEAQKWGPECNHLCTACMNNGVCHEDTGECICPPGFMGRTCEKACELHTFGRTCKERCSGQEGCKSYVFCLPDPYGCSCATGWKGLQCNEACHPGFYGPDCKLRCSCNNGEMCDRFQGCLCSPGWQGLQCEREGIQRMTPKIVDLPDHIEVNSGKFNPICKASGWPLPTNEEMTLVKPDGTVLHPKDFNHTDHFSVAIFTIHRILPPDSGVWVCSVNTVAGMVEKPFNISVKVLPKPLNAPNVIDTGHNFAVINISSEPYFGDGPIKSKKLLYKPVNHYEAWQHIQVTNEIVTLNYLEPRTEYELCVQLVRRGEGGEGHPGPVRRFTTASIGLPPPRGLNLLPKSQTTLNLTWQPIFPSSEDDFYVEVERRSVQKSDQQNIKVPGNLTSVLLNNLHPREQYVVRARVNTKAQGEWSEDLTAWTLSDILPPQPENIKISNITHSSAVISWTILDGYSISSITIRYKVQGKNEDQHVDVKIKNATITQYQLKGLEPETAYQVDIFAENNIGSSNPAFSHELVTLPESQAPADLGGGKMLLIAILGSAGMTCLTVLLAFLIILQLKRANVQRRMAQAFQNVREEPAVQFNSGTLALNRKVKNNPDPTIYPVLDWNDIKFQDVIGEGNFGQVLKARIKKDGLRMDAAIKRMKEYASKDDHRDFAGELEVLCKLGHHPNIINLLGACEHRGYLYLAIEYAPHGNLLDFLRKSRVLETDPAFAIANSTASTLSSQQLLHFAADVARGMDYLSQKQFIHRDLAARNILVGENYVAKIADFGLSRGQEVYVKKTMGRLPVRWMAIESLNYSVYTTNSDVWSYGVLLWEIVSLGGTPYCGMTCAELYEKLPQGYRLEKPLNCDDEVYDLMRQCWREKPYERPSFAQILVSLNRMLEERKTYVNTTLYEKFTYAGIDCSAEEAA
UniProt Q9Y6M4, sequence (whole entry, looked up): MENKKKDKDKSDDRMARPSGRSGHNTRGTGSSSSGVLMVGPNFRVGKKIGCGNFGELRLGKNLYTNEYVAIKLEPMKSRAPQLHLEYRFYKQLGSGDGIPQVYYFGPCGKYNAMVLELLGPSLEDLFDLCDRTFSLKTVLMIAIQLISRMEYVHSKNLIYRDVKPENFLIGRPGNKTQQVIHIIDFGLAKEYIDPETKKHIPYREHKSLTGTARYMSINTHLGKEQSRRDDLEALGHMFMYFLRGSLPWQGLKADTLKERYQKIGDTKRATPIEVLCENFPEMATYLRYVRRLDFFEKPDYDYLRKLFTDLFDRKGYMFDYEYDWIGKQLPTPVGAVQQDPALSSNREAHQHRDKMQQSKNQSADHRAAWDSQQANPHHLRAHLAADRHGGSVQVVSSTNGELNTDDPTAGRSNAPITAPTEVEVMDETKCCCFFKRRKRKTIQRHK
UniProt Q9HC98, sequence (whole entry, looked up): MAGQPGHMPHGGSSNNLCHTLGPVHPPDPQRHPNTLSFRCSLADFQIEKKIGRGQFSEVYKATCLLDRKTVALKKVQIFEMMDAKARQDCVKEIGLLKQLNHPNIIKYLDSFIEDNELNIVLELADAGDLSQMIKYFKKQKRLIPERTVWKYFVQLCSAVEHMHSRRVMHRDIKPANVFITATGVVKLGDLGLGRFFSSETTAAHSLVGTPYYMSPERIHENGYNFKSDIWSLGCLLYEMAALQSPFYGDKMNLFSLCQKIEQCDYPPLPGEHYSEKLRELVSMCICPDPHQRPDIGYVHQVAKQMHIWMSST
UniProt Q8IYT8, sequence (whole entry, looked up): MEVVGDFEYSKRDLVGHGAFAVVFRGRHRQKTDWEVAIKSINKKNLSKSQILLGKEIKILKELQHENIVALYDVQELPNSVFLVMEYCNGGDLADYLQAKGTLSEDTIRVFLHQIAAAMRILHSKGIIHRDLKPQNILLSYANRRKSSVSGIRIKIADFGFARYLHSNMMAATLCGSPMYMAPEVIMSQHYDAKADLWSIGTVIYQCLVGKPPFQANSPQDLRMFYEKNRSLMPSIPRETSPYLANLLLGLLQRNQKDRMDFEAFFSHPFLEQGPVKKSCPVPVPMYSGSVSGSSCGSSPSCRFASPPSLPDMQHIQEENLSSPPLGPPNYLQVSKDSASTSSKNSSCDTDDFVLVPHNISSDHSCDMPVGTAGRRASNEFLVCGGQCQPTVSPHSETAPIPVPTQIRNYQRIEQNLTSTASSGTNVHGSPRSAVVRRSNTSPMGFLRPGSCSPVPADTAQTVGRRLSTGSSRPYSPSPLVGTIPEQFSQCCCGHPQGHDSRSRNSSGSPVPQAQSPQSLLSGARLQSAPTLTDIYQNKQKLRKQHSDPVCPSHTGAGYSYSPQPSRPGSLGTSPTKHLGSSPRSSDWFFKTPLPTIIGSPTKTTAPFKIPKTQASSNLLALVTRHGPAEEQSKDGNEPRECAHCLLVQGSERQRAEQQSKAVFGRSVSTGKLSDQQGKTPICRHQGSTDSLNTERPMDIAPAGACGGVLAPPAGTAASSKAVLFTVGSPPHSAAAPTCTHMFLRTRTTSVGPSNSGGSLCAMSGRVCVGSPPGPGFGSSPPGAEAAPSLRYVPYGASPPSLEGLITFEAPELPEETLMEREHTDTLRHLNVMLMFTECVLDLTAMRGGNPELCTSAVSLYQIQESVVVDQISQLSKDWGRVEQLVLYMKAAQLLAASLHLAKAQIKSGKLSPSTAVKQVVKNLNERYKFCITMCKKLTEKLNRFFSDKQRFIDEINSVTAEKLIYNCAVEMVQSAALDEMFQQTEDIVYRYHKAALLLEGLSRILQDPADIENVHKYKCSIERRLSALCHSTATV
UniProt P22607, sequence (whole entry, looked up): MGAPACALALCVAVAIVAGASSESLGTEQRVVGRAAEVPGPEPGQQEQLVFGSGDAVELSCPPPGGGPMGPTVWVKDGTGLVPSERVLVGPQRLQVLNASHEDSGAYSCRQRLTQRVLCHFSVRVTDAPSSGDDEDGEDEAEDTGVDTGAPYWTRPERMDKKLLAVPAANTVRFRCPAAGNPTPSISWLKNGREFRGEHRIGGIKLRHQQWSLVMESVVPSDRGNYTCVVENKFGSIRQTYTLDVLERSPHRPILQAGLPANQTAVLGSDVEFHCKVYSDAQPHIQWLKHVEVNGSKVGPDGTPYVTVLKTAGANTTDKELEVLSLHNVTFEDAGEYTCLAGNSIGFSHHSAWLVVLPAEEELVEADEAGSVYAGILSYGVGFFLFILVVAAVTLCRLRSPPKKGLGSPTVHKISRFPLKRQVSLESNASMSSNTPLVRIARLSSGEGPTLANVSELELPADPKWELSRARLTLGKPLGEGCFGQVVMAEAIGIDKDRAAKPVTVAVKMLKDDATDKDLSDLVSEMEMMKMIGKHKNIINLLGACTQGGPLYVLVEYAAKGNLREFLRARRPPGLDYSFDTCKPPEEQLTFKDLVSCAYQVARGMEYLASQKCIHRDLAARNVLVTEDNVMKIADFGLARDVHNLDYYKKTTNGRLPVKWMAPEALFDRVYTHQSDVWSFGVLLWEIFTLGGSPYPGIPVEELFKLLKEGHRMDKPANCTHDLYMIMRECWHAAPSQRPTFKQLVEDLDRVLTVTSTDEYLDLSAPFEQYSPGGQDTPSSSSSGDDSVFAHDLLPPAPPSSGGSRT

Sample 1
Target: Interferon regulatory factor 5, full length, phosphomimetic (IRF5, Homo sapiens, UniProt Q13568-2, residues 1-514, S451D/S453D/S456D/S462D)
Method: protein-binding microarray
Form: double-stranded DNA, one strand shown
Sample: in vitro
Concentration: 940 nM top
Setting: 60-bp whole probe
With: salmon DNA 0.4 mg/ml
Relative to: random background probes
Direction: higher = stronger binding
Shared flanks, not repeated: GCCTAGCAC … GTCTTGATTCGCTTGACGCTGCTG
Sequence	fitted relative affinity [z-score]
GACGGTTTCGGTTTCGGAACGTGCTAG	14.1
GTAGATCTCAGACTGGATTAGTGCTAG	-0.187
GACGGTTCCCTGTTCCTGACGTGCTAG	0.646
GACGGTTTAGGTTCCGGGACGTGCTAG	0.706
TTAGGTCTCGGTATCGGATAGTGCTAG	4.95
TAAGGTCTCGGACTGGGTTAGTGCTAG	0.756
TTAGGTTTCGGGTTCCGGTTAGTGCTA	10.2
TCATGTTTTTTTCTATAACTGTGCTAG	1.21

Sample 2
Compound: O=C(O)[C@H]1[C@H](Cn2nnc3ccccc3c2=O)CC[C@@H]1C(=O)c1ccc(OCCC2CCOCC2)cc1
Effect on: cell-free assay
Method: competition with immobilised ligand
Concentration: 1 µM
target	remaining binding [%]
PIK3CA (Homo sapiens, UniProt P42336, Q546K)	97
EPHA8 (Homo sapiens, UniProt P29322)	100
CDK18 (Homo sapiens, UniProt Q07002)	84
CDK7 (Homo sapiens, UniProt P50613)	95
EGFR (Homo sapiens, UniProt P00533, del746-750)	80

Sample 3
SMILES: O=C(c1cc2cc(O)ccc2[nH]1)c1cc2cc(O)ccc2[nH]1
Effect on: enzyme activity
Action: inhibitor
Concentration: 0.5 µM
Relative to: control
target	remaining activity
MST1R (Homo sapiens, UniProt Q04912)	90.4%
LCK (Homo sapiens, UniProt P06239)	52%
MAP2K2 (Homo sapiens, UniProt P36507)	98.8%
MAP3K14 (Homo sapiens, UniProt Q99558)	77.1%
ACVR1B (Homo sapiens, UniProt P36896)	98.9%
GRK7 (Homo sapiens, UniProt Q8WTQ7)	99.8%
TEK (Homo sapiens, UniProt Q02763)	104%
NEK6 (Homo sapiens, UniProt Q9HC98)	99.6%
MAP3K5 (Homo sapiens, UniProt Q99683)	89.6%
CSNK1G2 (Homo sapiens, UniProt P78368)	93.8%
MERTK (Homo sapiens, UniProt Q12866)	81.8%
FGFR3 (Homo sapiens, UniProt P22607)	92.1%
CSNK1G3 (Homo sapiens, UniProt Q9Y6M4)	77.2%
ULK2 (Homo sapiens, UniProt Q8IYT8)	94.5%

Sample 4
Target: Centromere-binding protein 1, full length, N-terminal tag (CBF1, Saccharomyces cerevisiae, UniProt P17106, residues 1-351)
UniProt P17106, sequence (whole entry, looked up): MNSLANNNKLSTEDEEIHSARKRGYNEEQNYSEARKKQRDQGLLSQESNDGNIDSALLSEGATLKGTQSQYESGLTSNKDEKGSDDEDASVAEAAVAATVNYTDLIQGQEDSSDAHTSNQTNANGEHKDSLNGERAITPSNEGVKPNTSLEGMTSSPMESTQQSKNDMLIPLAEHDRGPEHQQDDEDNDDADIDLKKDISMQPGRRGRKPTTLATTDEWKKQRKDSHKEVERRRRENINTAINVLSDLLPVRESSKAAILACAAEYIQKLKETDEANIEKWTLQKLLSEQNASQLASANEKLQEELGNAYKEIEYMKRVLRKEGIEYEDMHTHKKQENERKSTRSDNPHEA
Method: protein-binding microarray
Form: double-stranded DNA, one strand shown
Sample: in vitro
Concentration: 0.8 µM
Setting: whole 60-bp probe, no competitor
Direction: higher = stronger binding
Shared flanks, not repeated: … GTCTTGATTCGCTTGACGCTGCTG
Sequence	fluorescence intensity
GAACTTTTTCAAATATACGTGGGGCTCATGGCTTAG	559 a.u.
CCTAACTACTATACTTTTCACGTATAGCTTCGTACA	546 a.u.
GAACTTGTCCTTGTCCACGTTCAATACAACAGTTAG	596 a.u.
GAACATAGAAAAAAGCATGTGATCAAGGCAGAGTAG	4080 a.u.
CTAGAACGAGTTTTGCCCGTGCTCCCCATGACTTTC	554 a.u.
CCTAACTACTATAAACTGATGTTATAGCTTCGTACA	527 a.u.
CTATTTGTAAAAAGTGGCATCATGACCAATAATTTC	923 a.u.
CTAGAAACTTGATAACGCACGCTAAACGATAACTTC	513 a.u.
